Earlier results that unrelated publications cite.
Each line is one published result; not all experiments were run side by side.
Chain of UniProt Q86YV6 (whole entry, looked up): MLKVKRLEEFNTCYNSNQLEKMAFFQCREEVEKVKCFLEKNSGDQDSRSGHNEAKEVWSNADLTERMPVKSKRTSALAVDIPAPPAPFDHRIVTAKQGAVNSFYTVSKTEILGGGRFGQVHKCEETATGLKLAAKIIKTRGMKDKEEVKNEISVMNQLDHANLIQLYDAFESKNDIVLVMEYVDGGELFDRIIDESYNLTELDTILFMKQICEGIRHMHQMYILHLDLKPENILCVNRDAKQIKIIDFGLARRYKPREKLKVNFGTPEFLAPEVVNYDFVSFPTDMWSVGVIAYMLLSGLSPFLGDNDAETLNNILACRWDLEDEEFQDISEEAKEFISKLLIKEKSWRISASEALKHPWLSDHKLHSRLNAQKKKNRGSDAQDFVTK

| SMILES | target | test | system | setting | how to read | quantity | value |
| --- | --- | --- | --- | --- | --- | --- | --- |
| FC(F)OC(Cl)C(F)(F)F (stereo not shown) | CYP3A4 | inhibitor |  | Tox21 screening |  | IC50 | inactive |
| Nc1cc(C(F)(F)F)c(-c2nc(N3CCOCC3)nc(N3CCOCC3)n2)cn1 | Myosin light chain kinase family member 4 (MYLK4, Homo sapiens, UniProt Q86YV6) | enzyme activity |  | 10 µM | reference: untreated | remaining activity | 77% |
| Cc1ccc(NC(=O)c2ccc(CN3CCN(C)CC3)cc2)cc1Nc1nc(-c2cccnc2)cs1 | CYP3A4 | reversible inhibitor |  |  |  | IC50 | 3860 nM |
| CC(C)Nc1nc2cc(Cl)c(Cl)cc2n1[C@H]1O[C@@H](CO)[C@H](O)[C@@H]1O | CYP3A4 |  |  |  |  | metabolism contribution | 70 to 85% |
| N#CCNC(=O)c1ccc(-c2ccnc(Nc3ccc(N4CCOCC4)cc3)n2)cc1 | CYP3A4 |  | human hepatocytes |  |  | contribution to metabolism | 36% |
| COc1cc2c(Oc3ccc4[nH]c(C)cc4c3F)ccnc2cc1OCC1(N)CC1 | CYP3A4 | enzyme activity, inhibitor |  | together with: testosterone |  | IC50 | 2090 nM |
| COCCc1ccc(OCC(O)CNC(C)C)cc1 (stereo not shown) | CYP3A4 |  |  |  |  | CLint | 0.02 µL/min/pmol |
| CO[C@@H](C)Cn1c(=O)n(C)c2cnc3ccc(-c4cncc(C(C)(C)O)c4)cc3c21 | CYP3A4 | substrate depletion |  |  |  | fraction of hepatic clearance | 82% |
| CC(O)C(C)n1ncn(-c2ccc(N3CCN(c4ccc(OCC5COC(Cn6cncn6)(c6ccc(Cl)cc6Cl)O5)cc4)CC3)cc2)c1=O (stereo not shown) | CYP3A4 |  |  |  |  | Km | 4.17 nM |
| FC(F)(F)C(F)(F)C(F)(F)C(F)(F)C(F)(F)C(F)(F)C(F)(F)C(F)(F)C(F)(F)C(F)(F)F | CYP3A4 |  |  | concentration not given |  | activity | inactive |
| C#C[C@]1(O)CC[C@H]2[C@@H]3CCC4=CC(=NO)CC[C@@H]4[C@H]3CC[C@@]21CC (mixture of isomers) | CYP3A4 |  |  |  |  | fraction metabolized | 0.57 |
| C=CC[C@@H]1/C=C(\C)C[C@H](C)C[C@H](OC)[C@H]2O[C@@](O)(C(=O)C(=O)N3CCCC[C@H]3C(=O)O[C@H](/C(C)=C/[C@@H]3CC[C@@H](O)[C@H](OC)C3)[C@H](C)[C@@H](O)CC1=O)[C@H](C)C[C@@H]2OC | CYP3A4 | metabolism, substrate |  | unbound fraction unadjusted |  | Km | 1500 nM |
| Fc1c(F)c(F)c(Br)c(F)c1F | CYP3A4 |  |  | concentration not given |  | activity | inactive |
| CC(O)C(C)n1ncn(-c2ccc(N3CCN(c4ccc(OCC5COC(Cn6cncn6)(c6ccc(Cl)cc6Cl)O5)cc4)CC3)cc2)c1=O (stereo not shown) | CYP3A4 | inhibitor |  | Simcyp input parameter |  | Ki | 4.6 nM |
| FC1(F)C(F)(F)C(F)(F)C2(F)C(F)(F)C(F)(F)C(F)(F)C(F)(F)C2(F)C1(F)F (stereo not shown) | CYP3A4 | inhibitor |  | Tox21 screening |  | IC50 | inactive |
| CC(O)C(C)n1ncn(-c2ccc(N3CCN(c4ccc(OCC5COC(Cn6cncn6)(c6ccc(Cl)cc6Cl)O5)cc4)CC3)cc2)c1=O (stereo not shown) | CYP3A4 | inhibitor |  |  |  | Ki | 14.4 nM |
| C=C(C)C(=O)OCCC(F)(F)C(F)(F)C(F)(F)C(F)(F)C(F)(F)C(F)(F)F | CYP3A4 |  |  | concentration not given |  | activity | inactive |
| COC(=O)N[C@@H](C)CNc1nccc(-c2cn(C(C)C)nc2-c2cc(Cl)cc(NS(C)(=O)=O)c2F)n1 | CYP3A4 |  |  | single dose |  | contribution to oxidative clearance | ~83% |
| CC(O)C(C)n1ncn(-c2ccc(N3CCN(c4ccc(OCC5COC(Cn6cncn6)(c6ccc(Cl)cc6Cl)O5)cc4)CC3)cc2)c1=O (stereo not shown) | CYP3A4 | substrate |  |  |  | Km | 27 nM |

For quick reference, copied from above:
| SMILES | target | test | system | setting | how to read | quantity | value |
| --- | --- | --- | --- | --- | --- | --- | --- |
| C=C(C)C(=O)OCCC(F)(F)C(F)(F)C(F)(F)C(F)(F)C(F)(F)C(F)(F)F | CYP3A4 |  |  | concentration not given |  | activity | inactive |
| CC(O)C(C)n1ncn(-c2ccc(N3CCN(c4ccc(OCC5COC(Cn6cncn6)(c6ccc(Cl)cc6Cl)O5)cc4)CC3)cc2)c1=O (stereo not shown) | CYP3A4 | inhibitor |  |  |  | Ki | 14.4 nM |
| CO[C@@H](C)Cn1c(=O)n(C)c2cnc3ccc(-c4cncc(C(C)(C)O)c4)cc3c21 | CYP3A4 | substrate depletion |  |  |  | fraction of hepatic clearance | 82% |
